Assay results gathered from unrelated publications.
A part holds a random share of what one study measured.

Study 1
Target: Prothrombin, mature alpha-thrombin (F2, Homo sapiens, UniProt P00734)
Method: aptamer microarray, sandwich
Form: DNA with 2'F-ANA
Sample: in vitro
Tested at: 200 nM
Setting: whole 15-mer aptamer, many near background
Added: Cy3 exosite-II aptamer, 400 nM
Reading: higher = stronger binding
Oligonucleotide: GGTTGGTGTGGTTGG
Modification	mean fluorescence intensity [a.u.]
2'F-ANA at 2 3 4 6 8 11 13 15	413
2'F-ANA at 4 6 8 10 11	90.8
2'F-ANA at 1 5 6 8 9 11 13 14	45
2'F-ANA at 1 4 5 7 8 12 14	46.5
2'F-ANA at 2 7 9 10 12 13	155
2'F-ANA at 2 4 5 6 8 11 15	59.8
2'F-ANA at 6 9 12 14 15	182
2'F-ANA at 2 6 7 8 9 15	403
2'F-ANA at 1 5 8 9 11 12 14	47
2'F-ANA at 1 2 3 4 5 7 8 9 11 13 14	44.4
2'F-ANA at 2 4 6 7 9 11 12 13 14 15	76.7
2'F-ANA at 1 2 10	52.1
2'F-ANA at 2 3 4 5 8 9 12 13 14	52.1
2'F-ANA at 3 4 6 8 10 12 13 14 15	174
2'F-ANA at 1 4 6 8 11 12 14	67.5
2'F-ANA at 2 4 6 7 8 9 12 15	522
2'F-ANA at 1 8 9 11 13 14 15	54.1
2'F-ANA at 2 3 6 7 12 14	382
2'F-ANA at 1 2 4 5 6 7 9 12 13 14 15	65.6
2'F-ANA at 1 5 6 7 9 10 11 12 13	46.3
2'F-ANA at 1 2 5 6 7 9 10 12 14	47.7
2'F-ANA at 1 2 5 6 8 9 10 11 14	51.4
2'F-ANA at 4 5 6 8 9 10 13	46.6
2'F-ANA at 3 5 6 8 11 14	55.5
2'F-ANA at 1 2 6 7 8 11 13 14	72

Study 2
Target: Histone acetyltransferase KAT6A, winged helix 2, GST fusion (KAT6A, Homo sapiens, UniProt Q92794, residues 85-181)
Method: protein binding microarray
Form: double-stranded DNA, one strand shown
Sample: in vitro
Tested at: not given
Setting: 8-mer, flanks averaged, mean of 2 arrays, mostly near background
Relative to: not given
Reading: higher = stronger binding
Residues (chain): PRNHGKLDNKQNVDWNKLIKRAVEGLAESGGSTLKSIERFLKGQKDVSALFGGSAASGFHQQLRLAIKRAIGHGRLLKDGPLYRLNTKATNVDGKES
Oligonucleotide	E-score
ACTGCCAT	0.124
ACTTCTAC	-0.208
CGGAACAC	0.0196
TAACGGTA	-0.132
GTTGTACA	0.14
GGGTAGCA	0.175
ACATAAAA	-0.0776
GCGGAAGA	0.142
GACGCGGC	-0.00771
ACTATAAA	-0.0695
GAACAACA	0.0233
TGCCGGAA	0.177
CATACATG	-0.0651
ATTGACAC	0.0778
GCAATCAA	0.0808
GATACAAA	0.117
ATCTGAGA	0.0554
AACATCTC	-0.169
CCCATTCC	-0.0391
CCCTGTTC	-0.0381
CTAGTATC	0.105
ATGACTGC	0.0242
CGACGCCC	0.0878
GGGTATAC	-0.138
ACCTATCA	-0.143

Study 3
Target: Ras GTPase-activating protein-binding protein 1, full length (G3BP1, Homo sapiens, UniProt Q13283)
Sequence of UniProt Q13283 (whole entry, looked up): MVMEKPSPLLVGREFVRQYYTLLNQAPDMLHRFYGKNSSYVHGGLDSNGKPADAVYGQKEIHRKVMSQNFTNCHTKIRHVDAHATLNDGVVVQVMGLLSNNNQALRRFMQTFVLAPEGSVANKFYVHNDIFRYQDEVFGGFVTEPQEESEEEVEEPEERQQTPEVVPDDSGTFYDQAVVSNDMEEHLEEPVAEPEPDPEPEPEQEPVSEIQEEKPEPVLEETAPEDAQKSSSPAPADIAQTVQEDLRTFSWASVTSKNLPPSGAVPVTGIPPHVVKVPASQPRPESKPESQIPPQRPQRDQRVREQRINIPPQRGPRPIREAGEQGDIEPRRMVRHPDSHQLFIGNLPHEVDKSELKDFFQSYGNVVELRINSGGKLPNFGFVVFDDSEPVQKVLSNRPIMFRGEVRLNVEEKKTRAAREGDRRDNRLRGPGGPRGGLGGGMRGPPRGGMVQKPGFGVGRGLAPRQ
Method: RNA Bind-n-Seq
Form: RNA
Sample: in vitro
Tested at: 200 nM
Setting: whole 134-nt RNA, ends assumed
Added: 150 mM KCl
Relative to: input library
Reading: higher = stronger binding
All sequences stand within: GGGAGUUCUACAGUCCGACGAUC … UGGAAUUCUCGGGUGUCAAGG
Oligonucleotide	log2 enrichment
ACCAUGCAGUUGGGCAUCUUUGGGAAGUGGGGCAAGGGGGGGAUAGGGAGGGGGGUAACACUUUGGGAACAGGUGGUCCCAGGUCGUUUC	1.16
UGGGAGGUGGAUUUUGUUUAUUUUUUUAGCUCAUCUCCAGGGGUGGGAAUUUUUUUUUAAUAUGUGUCAUGAAUAAAGUUGUUUUUGAAA	0.229
CUGUGCUACACAUCGUAUGUACCGAAUCGGUUUUUUUGGGUUUUUUUGGGGUUUUUUUGGGAAAGUAUUAUGUUACGCCGUUCGGAUCUG	-1.02
CUCAAGUCCUGUGCUACACAUCGUAUGUACCGAAUCGGAAGGGGAAGGAAGGGGAAAGUAUUAUGUUACGCCGUUCGGAUCUGCACUUCC	0.887
UGGGAGGUGGAUUUUGUUUAUUUUUUUAGCUCACUUCCAGGGGUGGGAAUUUUUUUUUAAUAUGUGUCAUGAAUAAAGUUGUUUUUGAAA	0.39
CCUGUGCUACACAUCGUAUGUACCGAAUCGGGCCCCCCGGGCCCCCCGGGCCCCCCGGGGAAAGUAUUAUGUUACGCCGUUCGGAUCUGC	-0.761
UCCUGUGCUACACAUCGUAUGUACCGAAUCGGCCCCCCGGGGCCCCCCGGGCCCCCCGGAAAGUAUUAUGUUACGCCGUUCGGAUCUGCA	-0.714
CAAGUCCUGUGCUACACAUCGUAUGUACCGAAUCGGGAAAAAGGGUUUGGGAGGGAAAGUAUUAUGUUACGCCGUUCGGAUCUGCACUUC	0.723
CUGUGCUACACAUCGUAUGUACCGAAUCGGGAAAAAAAGGGAAAAAAAGGAAAAAAAGGGGAAAGUAUUAUGUUACGCCGUUCGGAUCUG	-0.866

Study 4
Target: Sal-like protein 4, full length isoform A (SALL4, Homo sapiens, UniProt Q9UJQ4, residues 1-1053)
Sequence of UniProt Q9UJQ4 (whole entry, looked up): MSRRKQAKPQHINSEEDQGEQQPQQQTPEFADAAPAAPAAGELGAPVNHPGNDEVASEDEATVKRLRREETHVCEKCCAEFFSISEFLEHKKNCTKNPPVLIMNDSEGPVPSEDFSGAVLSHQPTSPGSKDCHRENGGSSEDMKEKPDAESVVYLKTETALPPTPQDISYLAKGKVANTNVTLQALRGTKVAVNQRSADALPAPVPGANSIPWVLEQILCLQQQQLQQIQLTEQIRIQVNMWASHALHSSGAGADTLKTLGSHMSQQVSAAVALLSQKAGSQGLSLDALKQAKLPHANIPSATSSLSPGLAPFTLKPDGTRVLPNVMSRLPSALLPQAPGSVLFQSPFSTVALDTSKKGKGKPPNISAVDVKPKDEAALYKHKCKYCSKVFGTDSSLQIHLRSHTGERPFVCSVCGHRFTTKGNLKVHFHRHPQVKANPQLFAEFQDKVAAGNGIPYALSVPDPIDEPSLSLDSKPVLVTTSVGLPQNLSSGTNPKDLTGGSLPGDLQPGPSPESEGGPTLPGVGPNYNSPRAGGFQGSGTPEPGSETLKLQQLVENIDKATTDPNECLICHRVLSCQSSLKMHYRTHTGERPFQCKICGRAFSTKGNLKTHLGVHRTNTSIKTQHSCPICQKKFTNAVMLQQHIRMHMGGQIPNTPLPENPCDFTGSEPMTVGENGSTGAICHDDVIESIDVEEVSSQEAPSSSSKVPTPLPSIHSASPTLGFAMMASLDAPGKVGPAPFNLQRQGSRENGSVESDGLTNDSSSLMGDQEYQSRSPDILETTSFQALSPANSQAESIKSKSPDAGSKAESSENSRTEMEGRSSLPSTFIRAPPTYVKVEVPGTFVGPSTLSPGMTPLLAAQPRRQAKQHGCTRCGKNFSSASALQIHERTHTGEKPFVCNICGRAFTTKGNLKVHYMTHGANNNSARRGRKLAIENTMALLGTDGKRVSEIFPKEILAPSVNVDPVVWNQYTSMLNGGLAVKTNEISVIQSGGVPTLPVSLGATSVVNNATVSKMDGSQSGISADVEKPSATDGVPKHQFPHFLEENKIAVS
Method: universal PBM
Form: double-stranded DNA, one strand shown
Sample: in vitro
Tested at: 600 nM
Setting: 8-mer, flanks averaged, mean of replicates
Reading: higher = stronger binding
Oligonucleotide	E-score
GCAGTGGA	-0.00522
GCTGCCTA	-0.158
AAGGCAAG	-0.0839
AGCACATA	0.106
ACAAAAAC	0.162
CTGGAAGA	-0.0999
AAGGGTCG	-0.171
AAGGTGCC	-0.194
ATTTCTGG	0.142
CGGCTTGC	-0.224
ATCCCGTA	-0.0598
GTTCGGAA	-0.0806
AACGGGAA	0.151
ATAGGGGG	-0.15
GTAACAAA	0.228
AAAGCAAA	0.148
AACGTGCT	-0.103
AAGGTTGT	0.0444
AAAAAGCG	0.175
CCCCTGAG	-0.311
ACGTGGCG	-0.208
GAGTGCTA	-0.0625
ACAGCATA	0.265
ATTATTCA	0.342

Mixed results
Molecule	target	assay	test system	conditions	scale	quantity	value
PhoQ, residues 284 288 289 292 302 303 NSMLDC	PhoP, residues 12 14 15 18 19 SQCLL (Escherichia coli, UniProt P23836)	Sort-seq, refers to: YFP reporter	E. coli	PhoQ-PhoP variant library, added: 10 µM Mg2+	relative to: high Mg2+ state, higher = stronger signaling	fold induction	14.7

For quick reference, copied from above (study 2):
Oligonucleotide	E-score
ATGACTGC	0.0242
ACTTCTAC	-0.208
GAACAACA	0.0233
GGGTAGCA	0.175
ATCTGAGA	0.0554
AACATCTC	-0.169
GATACAAA	0.117
CATACATG	-0.0651
CCCATTCC	-0.0391
GGGTATAC	-0.138
ACTGCCAT	0.124
